Published values of several laboratories.
Several values in a cell are separate wells, animals, samples, runs or records.
CALCR: Calcitonin receptor (CALCR, Homo sapiens, UniProt P30988)
UniProt P34972, sequence (whole entry, looked up): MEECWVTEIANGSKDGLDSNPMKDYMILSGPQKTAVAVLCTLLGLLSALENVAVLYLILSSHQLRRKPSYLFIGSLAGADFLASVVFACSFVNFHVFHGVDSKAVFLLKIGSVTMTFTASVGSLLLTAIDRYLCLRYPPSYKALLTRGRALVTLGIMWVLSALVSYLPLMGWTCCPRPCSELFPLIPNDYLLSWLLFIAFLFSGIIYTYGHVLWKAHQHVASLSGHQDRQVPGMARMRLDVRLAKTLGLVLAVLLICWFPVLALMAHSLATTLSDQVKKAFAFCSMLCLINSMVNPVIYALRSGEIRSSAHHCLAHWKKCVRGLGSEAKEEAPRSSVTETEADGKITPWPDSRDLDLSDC
UniProt P30988, sequence (whole entry, looked up): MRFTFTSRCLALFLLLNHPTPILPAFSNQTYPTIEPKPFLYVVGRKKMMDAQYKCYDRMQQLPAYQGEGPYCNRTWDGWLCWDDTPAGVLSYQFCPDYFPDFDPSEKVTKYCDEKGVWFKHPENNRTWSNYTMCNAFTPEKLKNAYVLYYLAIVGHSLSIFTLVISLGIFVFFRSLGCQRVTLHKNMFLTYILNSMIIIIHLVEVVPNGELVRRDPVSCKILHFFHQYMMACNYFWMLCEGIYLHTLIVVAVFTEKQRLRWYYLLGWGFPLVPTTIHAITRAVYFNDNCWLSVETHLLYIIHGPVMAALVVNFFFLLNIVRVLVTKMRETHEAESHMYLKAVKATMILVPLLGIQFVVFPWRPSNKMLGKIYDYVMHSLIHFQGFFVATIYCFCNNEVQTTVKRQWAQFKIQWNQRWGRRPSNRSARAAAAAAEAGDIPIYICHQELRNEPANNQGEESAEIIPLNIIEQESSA
UniProt P40337, sequence (whole entry, looked up): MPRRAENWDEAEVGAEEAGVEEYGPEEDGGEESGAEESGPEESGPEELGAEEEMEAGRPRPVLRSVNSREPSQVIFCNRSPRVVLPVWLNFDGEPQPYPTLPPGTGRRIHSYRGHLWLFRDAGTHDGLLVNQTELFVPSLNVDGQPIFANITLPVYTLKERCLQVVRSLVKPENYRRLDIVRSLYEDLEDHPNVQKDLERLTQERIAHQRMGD
UniProt Q9H8M2, sequence (whole entry, looked up): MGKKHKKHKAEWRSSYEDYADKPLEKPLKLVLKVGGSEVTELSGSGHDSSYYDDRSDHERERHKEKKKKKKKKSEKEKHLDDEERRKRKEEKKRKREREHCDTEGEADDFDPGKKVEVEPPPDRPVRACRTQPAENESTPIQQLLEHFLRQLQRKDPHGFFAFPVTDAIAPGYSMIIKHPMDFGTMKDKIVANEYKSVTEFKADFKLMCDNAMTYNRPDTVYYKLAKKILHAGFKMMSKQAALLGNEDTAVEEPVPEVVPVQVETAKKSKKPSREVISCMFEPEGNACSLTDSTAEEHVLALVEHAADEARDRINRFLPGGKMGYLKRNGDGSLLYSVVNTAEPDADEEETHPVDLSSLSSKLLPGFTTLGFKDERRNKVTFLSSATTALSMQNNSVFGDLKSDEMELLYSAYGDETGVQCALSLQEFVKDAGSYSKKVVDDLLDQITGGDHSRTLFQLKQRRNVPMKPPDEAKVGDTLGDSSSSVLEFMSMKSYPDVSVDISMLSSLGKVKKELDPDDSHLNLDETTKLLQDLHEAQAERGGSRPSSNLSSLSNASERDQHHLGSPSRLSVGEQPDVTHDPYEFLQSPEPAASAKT
UniProt P61981, sequence (whole entry, looked up): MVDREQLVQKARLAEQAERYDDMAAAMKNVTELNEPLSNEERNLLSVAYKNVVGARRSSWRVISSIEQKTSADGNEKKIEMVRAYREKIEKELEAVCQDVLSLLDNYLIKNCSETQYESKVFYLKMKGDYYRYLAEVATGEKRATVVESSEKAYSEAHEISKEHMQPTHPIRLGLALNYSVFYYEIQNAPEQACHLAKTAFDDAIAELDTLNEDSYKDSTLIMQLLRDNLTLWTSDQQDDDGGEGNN
UniProt O75762, sequence (whole entry, looked up): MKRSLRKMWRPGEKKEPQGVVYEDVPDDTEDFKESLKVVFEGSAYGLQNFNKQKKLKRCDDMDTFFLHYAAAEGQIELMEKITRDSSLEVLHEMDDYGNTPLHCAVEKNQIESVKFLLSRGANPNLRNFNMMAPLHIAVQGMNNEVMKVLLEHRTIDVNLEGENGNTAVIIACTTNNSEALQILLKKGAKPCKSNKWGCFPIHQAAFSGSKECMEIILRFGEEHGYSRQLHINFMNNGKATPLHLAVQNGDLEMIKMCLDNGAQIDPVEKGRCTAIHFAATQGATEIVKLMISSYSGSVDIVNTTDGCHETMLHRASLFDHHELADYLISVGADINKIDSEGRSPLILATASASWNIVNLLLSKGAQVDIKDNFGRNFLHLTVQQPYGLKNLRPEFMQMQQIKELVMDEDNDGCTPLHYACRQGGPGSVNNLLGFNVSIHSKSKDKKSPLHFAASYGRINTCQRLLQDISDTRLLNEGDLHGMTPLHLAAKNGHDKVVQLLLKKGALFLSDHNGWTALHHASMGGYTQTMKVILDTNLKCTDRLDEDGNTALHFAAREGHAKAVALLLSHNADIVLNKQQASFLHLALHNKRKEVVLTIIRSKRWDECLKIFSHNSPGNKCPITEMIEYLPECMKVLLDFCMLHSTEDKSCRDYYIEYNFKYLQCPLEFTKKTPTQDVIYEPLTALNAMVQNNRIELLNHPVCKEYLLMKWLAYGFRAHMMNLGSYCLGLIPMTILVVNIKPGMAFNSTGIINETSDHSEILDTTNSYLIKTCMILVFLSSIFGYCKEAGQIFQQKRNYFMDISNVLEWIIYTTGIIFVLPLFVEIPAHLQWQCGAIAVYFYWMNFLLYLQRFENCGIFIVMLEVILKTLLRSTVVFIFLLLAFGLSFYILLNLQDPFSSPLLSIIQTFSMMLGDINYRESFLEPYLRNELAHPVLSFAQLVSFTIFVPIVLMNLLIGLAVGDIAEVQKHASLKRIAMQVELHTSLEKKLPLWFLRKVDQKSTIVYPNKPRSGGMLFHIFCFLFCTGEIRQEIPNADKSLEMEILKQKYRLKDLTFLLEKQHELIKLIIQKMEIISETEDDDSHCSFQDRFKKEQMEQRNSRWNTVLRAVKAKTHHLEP
UniProt Q92847, sequence (whole entry, unmodified, looked up): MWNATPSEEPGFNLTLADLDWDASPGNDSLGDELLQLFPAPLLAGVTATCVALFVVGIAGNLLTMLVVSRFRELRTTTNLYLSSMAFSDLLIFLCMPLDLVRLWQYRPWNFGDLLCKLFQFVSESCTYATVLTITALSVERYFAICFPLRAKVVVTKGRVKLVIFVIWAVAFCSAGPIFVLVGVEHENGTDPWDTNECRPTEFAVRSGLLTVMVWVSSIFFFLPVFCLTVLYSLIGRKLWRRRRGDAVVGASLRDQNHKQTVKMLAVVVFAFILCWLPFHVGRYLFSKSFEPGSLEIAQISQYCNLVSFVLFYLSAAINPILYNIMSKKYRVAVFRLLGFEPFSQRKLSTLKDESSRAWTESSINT
UniProt Q04206, sequence (whole entry, looked up): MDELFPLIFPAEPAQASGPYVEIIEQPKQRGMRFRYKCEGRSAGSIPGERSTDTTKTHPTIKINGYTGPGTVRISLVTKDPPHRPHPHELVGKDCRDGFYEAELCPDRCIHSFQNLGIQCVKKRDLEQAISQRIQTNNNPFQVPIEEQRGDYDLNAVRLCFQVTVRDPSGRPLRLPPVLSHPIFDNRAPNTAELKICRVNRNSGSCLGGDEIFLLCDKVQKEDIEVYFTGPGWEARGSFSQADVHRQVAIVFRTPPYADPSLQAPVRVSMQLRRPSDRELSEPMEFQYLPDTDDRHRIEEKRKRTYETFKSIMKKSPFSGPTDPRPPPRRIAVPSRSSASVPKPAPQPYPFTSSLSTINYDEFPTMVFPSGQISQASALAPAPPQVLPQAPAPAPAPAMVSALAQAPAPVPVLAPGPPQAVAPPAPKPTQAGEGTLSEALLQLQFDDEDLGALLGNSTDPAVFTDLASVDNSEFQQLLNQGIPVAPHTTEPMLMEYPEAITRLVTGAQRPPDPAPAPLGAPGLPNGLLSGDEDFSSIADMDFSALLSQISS

SMILES	target	test	test system	conditions	EC50
CC[C@H](C)[C@@H](C(=O)N[C@@H](CC(C)C)C(=O)N[C@@H](CO)C(=O)N[C@@H](CO)C(=O)N[C@H](C(=O)N[C@@H](CCC(=O)O)C(=O)N[C@H](C(=O)NCC(=O)N[C@@H](CO)C(=O)N[C@@H](CC(N)=O)C(=O)N[C@H](C(=O)N1C[C@H](O)C[C@H]1C(N)=O)[C@@H](C)O)C(C)C)[C@@H](C)O)N(C)C(=O)[C@H](C)NC(=O)CN(C)C(=O)[C@H](Cc1ccccc1)NC(=O)[C@H](CO)NC(=O)[C@H](CO)NC(=O)[C@H](CCCNC(=N)N)NC(=O)[C@H](CCC(N)=O)NC(=O)[C@H](CC(C)C)NC(=O)[C@H](Cc1ccccc1)NC(=O)[C@H](Cc1c[nH]cn1)NC(=O)[C@H](C)NC(=O)[C@H](CC(C)C)NC(=O)[C@H](CCCNC(=N)N)NC(=O)[C@H](CCC(=O)O)NC(=O)[C@@H](NC(=O)[C@H](C)NC(=O)[C@@H]1CNC(=O)CCC[C@H](NC(=O)[C@H](CCCNC(=N)N)NC(=O)CC[C@H](NC(=O)CCCCCCCCCCCCCCCCCCC(=O)O)C(=O)O)C(=O)NCC(=O)N[C@@H]([C@@H](C)O)C(=O)N[C@@H](C)C(=O)N[C@@H]([C@@H](C)O)C(=O)N1)[C@@H](C)O	CALCR	cAMP, agonist			0.38 µM
CC(=O)NCCN(c1nc(N2CC3C(CCOc4cc(-c5scnc5C)ccc4CNC(=O)[C@@H]4C[C@@H](O)CN4C(=O)[C@@H](NC(=O)C4(F)CC4)C(C)(C)C)C3C2)nc(N2CC(n3ccnc3)C2)n1)C(C)C (stereo partly shown)	VHL/BRD9, with Elongin B/C (Homo sapiens, UniProt P40337+Q9H8M2)	ternary complex formation, AlphaScreen		together with: 50 nM His-BRD9 and 20 nM biotin-VCB	0.071 µM
COc1ccc(C(=O)c2c(C(=O)NCCCN(C)C)oc3ccc(Cl)cc3c2=O)cc1OC	GHSR (Homo sapiens, UniProt Q92847, L149G)	beta-arrestin-2 recruitment, BRET	HEK293T	60 min	0.457 µM
CC(=O)NCC1CCCCN1c1nc(N(C)CCc2ncc(C)s2)nc(N2CC3C(CCOc4cc(-c5scnc5C)ccc4CNC(=O)[C@@H]4C[C@@H](O)CN4C(=O)[C@@H](NC(=O)C4(F)CC4)C(C)(C)C)C3C2)n1 (stereo partly shown)	VHL/BRD9 (Homo sapiens, UniProt P40337+Q9H8M2)	ternary complex formation, NanoBiT	HEK293T	2 h, together with: MLN4924 2 µM	0.195 µM
O=C1C[C@H](c2nc(-c3ccc(F)c4cn[nH]c34)no2)CCCN1c1ccc(F)cc1 (racemic)	CNR2 (Homo sapiens, UniProt P34972)	agonist, GloSensor cAMP	CHO expressing CNR2		0.0256 µM and 0.0273 µM and 0.027 µM and 0.0267 µM and 0.0258 µM
CC[C@H](C)[C@H](NC(=O)[C@@H]1CCCN1C(=O)CNC(=O)[C@H](Cc1ccccc1)NC(=O)[C@H](CC(N)=O)NC(=O)[C@H](CC(N)=O)NC(=O)[C@H](CO)NC(=O)[C@H](CO)NC(=O)[C@H](Cc1c[nH]cn1)NC(=O)[C@H](CCCNC(=N)N)NC(=O)[C@H](CC(C)C)NC(=O)[C@H](Cc1ccccc1)NC(=O)[C@H](CCC(=O)O)NC(=O)[C@H](C)NC(=O)[C@H](CC(C)C)NC(=O)[C@H](CCCNC(=N)N)NC(=O)[C@H](CCC(N)=O)NC(=O)[C@@H](NC(=O)[C@H](C)NC(=O)[C@@H]1CSSC[C@H](NC(=O)[C@H](CCCCN)NC(=O)CC[C@H](NC(=O)CCCCCCCCCCCCCCCCCCC(=O)O)C(=O)O)C(=O)N[C@@H](CC(N)=O)C(=O)N[C@@H]([C@@H](C)O)C(=O)N[C@@H](C)C(=O)N[C@@H]([C@@H](C)O)C(=O)N1)[C@@H](C)O)C(=O)N[C@@H](CC(C)C)C(=O)N1CCC[C@H]1C(=O)N1CCC[C@H]1C(=O)N[C@H](C(=O)N[C@@H](CC(N)=O)C(=O)N[C@H](C(=O)NCC(=O)N[C@@H](CO)C(=O)N[C@@H](CC(N)=O)C(=O)N[C@H](C(=O)N[C@@H](Cc1ccc(O)cc1)C(N)=O)[C@@H](C)O)C(C)C)[C@@H](C)O	Calcitonin receptor, isoform a (CALCR, Homo sapiens, UniProt P30988)	reporter gene, agonist, CRE-luciferase	BHK expressing CTR	3 h	6.31e-06 µM
CC[C@H](C)[C@@H](C(=O)N[C@@H](CC(C)C)C(=O)N[C@@H](CO)C(=O)N[C@@H](CO)C(=O)N[C@H](C(=O)N[C@@H](CCC(=O)O)C(=O)N[C@H](C(=O)NCC(=O)N[C@@H](CO)C(=O)N[C@@H](CC(N)=O)C(=O)N[C@H](C(=O)N1C[C@H](O)C[C@H]1C(N)=O)[C@@H](C)O)C(C)C)[C@@H](C)O)N(C)C(=O)[C@H](C)NC(=O)CN(C)C(=O)[C@H](Cc1ccccc1)NC(=O)[C@H](CO)NC(=O)[C@H](CO)NC(=O)[C@H](CCCNC(=N)N)NC(=O)[C@H](CCC(N)=O)NC(=O)[C@H](CC(C)C)NC(=O)[C@H](Cc1ccccc1)NC(=O)[C@H](Cc1c[nH]cn1)NC(=O)[C@H](C)NC(=O)[C@H](CC(C)C)NC(=O)[C@H](CCCNC(=N)N)NC(=O)[C@H](CCC(=O)O)NC(=O)[C@@H](NC(=O)[C@H](C)NC(=O)[C@@H]1CCNC(=O)CC[C@H](NC(=O)[C@H](CCCNC(=N)N)NC(=O)CC[C@H](NC(=O)CCCCCCCCCCCCCCCCCCC(=O)O)C(=O)O)C(=O)NCC(=O)N[C@@H]([C@@H](C)O)C(=O)N[C@@H](C)C(=O)N[C@@H]([C@@H](C)O)C(=O)N1)[C@@H](C)O	CALCR	cAMP, agonist			0.00692 µM
COc1cccc(S(=O)(=O)Oc2cc(C=O)ccc2[N+](=O)[O-])c1	YWHAG/RELA, phospho-Ser45 p65 peptide (Homo sapiens, UniProt P61981+Q04206)	ternary complex formation, stabilizer, fluorescence anisotropy			> 1000 µM
CC[C@H](C)[C@@H](C(=O)N[C@@H](CC(C)C)C(=O)N[C@@H](CO)C(=O)N[C@@H](CO)C(=O)N[C@H](C(=O)N[C@@H](CCC(=O)O)C(=O)N[C@H](C(=O)NCC(=O)N[C@@H](CO)C(=O)N[C@@H](CC(N)=O)C(=O)N[C@H](C(=O)N1C[C@H](O)C[C@H]1C(N)=O)[C@@H](C)O)C(C)C)[C@@H](C)O)N(C)C(=O)[C@H](C)NC(=O)CN(C)C(=O)[C@H](Cc1ccccc1)NC(=O)[C@H](CO)NC(=O)[C@H](CO)NC(=O)[C@H](CCCNC(=N)N)NC(=O)[C@H](CCC(N)=O)NC(=O)[C@H](CC(C)C)NC(=O)[C@H](Cc1ccccc1)NC(=O)[C@H](Cc1c[nH]cn1)NC(=O)[C@H](C)NC(=O)[C@H](CC(C)C)NC(=O)[C@H](CCCNC(=N)N)NC(=O)[C@H](CCC(=O)O)NC(=O)[C@@H](NC(=O)[C@H](C)NC(=O)[C@@H]1CSSC[C@H](NC(=O)[C@H](CCCNC(=N)N)NC(=O)CC[C@H](NC(=O)CCCCCCCCCCCCCCCCCCC(=O)O)C(=O)O)C(=O)N[C@@H](CCC(N)=O)C(=O)N[C@@H]([C@@H](C)O)C(=O)N[C@@H](C)C(=O)N[C@@H]([C@@H](C)O)C(=O)N1)[C@@H](C)O	CALCR	cAMP, agonist			0.0001 µM
O=C(NC[C@@H](Cc1ccc(F)cc1)N1CCC(O)(C(F)(F)F)CC1)C1(c2ccc(Cl)cc2)CCCC1	TRPA1 (Homo sapiens, UniProt O75762)	calcium signal, agonist			0.0073 µM

Some of these lines once more:
SMILES	target	test	test system	conditions	EC50
CC[C@H](C)[C@H](NC(=O)[C@@H]1CCCN1C(=O)CNC(=O)[C@H](Cc1ccccc1)NC(=O)[C@H](CC(N)=O)NC(=O)[C@H](CC(N)=O)NC(=O)[C@H](CO)NC(=O)[C@H](CO)NC(=O)[C@H](Cc1c[nH]cn1)NC(=O)[C@H](CCCNC(=N)N)NC(=O)[C@H](CC(C)C)NC(=O)[C@H](Cc1ccccc1)NC(=O)[C@H](CCC(=O)O)NC(=O)[C@H](C)NC(=O)[C@H](CC(C)C)NC(=O)[C@H](CCCNC(=N)N)NC(=O)[C@H](CCC(N)=O)NC(=O)[C@@H](NC(=O)[C@H](C)NC(=O)[C@@H]1CSSC[C@H](NC(=O)[C@H](CCCCN)NC(=O)CC[C@H](NC(=O)CCCCCCCCCCCCCCCCCCC(=O)O)C(=O)O)C(=O)N[C@@H](CC(N)=O)C(=O)N[C@@H]([C@@H](C)O)C(=O)N[C@@H](C)C(=O)N[C@@H]([C@@H](C)O)C(=O)N1)[C@@H](C)O)C(=O)N[C@@H](CC(C)C)C(=O)N1CCC[C@H]1C(=O)N1CCC[C@H]1C(=O)N[C@H](C(=O)N[C@@H](CC(N)=O)C(=O)N[C@H](C(=O)NCC(=O)N[C@@H](CO)C(=O)N[C@@H](CC(N)=O)C(=O)N[C@H](C(=O)N[C@@H](Cc1ccc(O)cc1)C(N)=O)[C@@H](C)O)C(C)C)[C@@H](C)O	Calcitonin receptor, isoform a (CALCR, Homo sapiens, UniProt P30988)	reporter gene, agonist, CRE-luciferase	BHK expressing CTR	3 h	6.31e-06 µM
